Assay results collected from several papers.
Protocols differ between the studies behind these lines. Numbers after ± are the reported error.

SMILES	assay	test system	setting	how to read	measurement	value
CC[C@@](C)(NC)C(=O)NC(C)(C)C(=O)NC(C)(C)C(=O)NC(C)(C)C(=O)NCC(=O)NC(C)(C)C(=O)N1CCC[C@@H]1C(=O)N[C@@H](Cc1c[nH]c2ccccc12)C(=O)NC(C)(C)C(=O)N1C[C@H](O)C[C@@H]1C(=O)N[C@@H](C)C(=O)NC(C)(C)C(=O)NCCCC(=O)N[C@@H](CC(C)C)C(=O)N[C@](C)(CC)C(=O)NC(C)(C)C(=O)N[C@](C)(CC)C(=O)N[C@H](CO)Cc1ccccc1	5-carboxyfluorescein release	POPG liposomes	20 µg/mL, 30 min	relative to: Triton X-100 full leakage	dye leakage	~60%
C=C(NC(=O)C(=C)NC(=O)c1csc(C2=NC3c4csc(n4)C4NC(=O)c5csc(n5)C(C(C)(O)C(C)O)NC(=O)C5CSC(=N5)C(=CC)NC(=O)C(C(C)O)NC(=O)c5csc(n5)C3(CC2)NC(=O)C(C)NC(=O)C(=C)NC(=O)C(C(C)C)NC2C=Cc3c(C(C)O)cc(nc3C2O)C(=O)OC4C)n1)C(N)=O (stereo not shown)	protein synthesis, coupled transcription-translation, item: luciferase	Escherichia coli S30 extract	1 h, 37 °C		IC50	> 3.28 µM
COC(=O)C[C@](O)(CCCC(C)(C)OC(C)=O)C(=O)O[C@@H]1C(OC)=C[C@]23CCCN2CCc2cc4c(cc2[C@H]13)OCO4	immunofluorescence	BALB/c nude mouse, KP-4 xenograft, tumour	dose not given		Ki67 level	decreased
COC[C@@H](NC(C)=O)C(=O)NCc1ccc(OCc2cccc(Cl)c2)cc1	maximal electroshock seizure test	mouse	ip, time of peak effect		ED50	16 mg/kg
C[C@@H](NC(=O)[C@@H](CCC(N)=O)NC(=O)[C@@H](C)NC(=O)[C@@H](CCCCN)NC(=O)[C@@H](CCC(N)=O)NC(=O)[C@@H](C)NC(=O)[C@@H](CCCCN)NC(=O)[C@@H](CCC(N)=O)NC(=O)[C@@H](C)NC(=O)[C@@H](CCC(N)=O)NC(=O)[C@@H](CCCCN)NC(=O)[C@@H](C)NC(=O)[C@@H](CCC(N)=O)NC(=O)[C@@H](CCCCN)NC(=O)[C@@H](C)NC(=O)[C@@H](CCC(N)=O)NC(=O)[C@@H](C)NC(=O)[C@@H](CCCCN)NC(=O)[C@@H](CCC(N)=O)NC(=O)[C@@H](C)NC(=O)[C@@H](CCCCN)NC(=O)[C@@H](CO)NC(=O)[C@@H](Cc1ccc(O)cc1)NC(=O)CNC(=O)CNC(=O)CN)C(=O)N[C@H](CCCCN)C(=O)N[C@H](CCC(N)=O)C(=O)N[C@H](C)C(=O)N[C@H](CCCCN)C(=O)N[C@H](CCC(N)=O)C(=O)O	binding	AA amyloid mouse liver homogenate	1 h, room temperature		bound fraction	92%
CC(C)C[C@H](NC(=O)[C@H](C)NC(=O)CNC(=O)[C@H](CO)NC(=O)CNC(=O)[C@H](CCCNC(=N)N)NC(=O)[C@H](CCCNC(=N)N)NC(=O)[C@H](CCCNC(=N)N)NC(=O)[C@H](CCC(N)=O)NC(=O)[C@H](CCCNC(=N)N)NC(=O)[C@H](CCCNC(=N)N)NC(=O)[C@H](CCCCN)NC(=O)[C@H](CCCCN)NC(=O)[C@H](CCCNC(=N)N)NC(=O)CNC(=O)[C@@H](N)Cc1ccc(O)cc1)C(=O)N[C@@H](CO)C(=O)N[C@H](C(=O)N[C@@H](CCC(=O)O)C(=O)N[C@@H](CCCNC(=N)N)C(=O)O)[C@@H](C)O	TTC staining	isolated rat heart	concentration not given, given during reperfusion only	relative to: control peptides	infarct size reduction	~70%
O=C(O)/C=C/c1ccc(O)cc1			250 µg/mL		DPPH radical scavenging	67.6 ± 0.5%
CC[C@H](C)[C@H](NC(=O)[C@@H](NC(=O)[C@H](CC(=O)O)NC(C)=O)[C@@H](C)O)C(=O)N[C@@H](CCCNC(=N)N)C(=O)N[C@@H](CC(C)C)C(=O)N[C@@H](CC(C)C)C(=O)N[C@@H](Cc1ccccc1)C(=O)N[C@@H](CCC(N)=O)C(=O)N[C@@H](CC(C)C)C(=O)N[C@@H](CCSC)C(=O)N[C@@H](CCCNC(=N)N)C(=O)N1CCC[C@H]1C(=O)N1CCC[C@H]1C(=O)N[C@@H](CC(N)=O)C(=O)N[C@@H](CCSC)C(=O)N[C@H](C(=O)N1CCC[C@H]1C(=O)N[C@@H](C)C(=O)N[C@H](C(=O)N[C@@H](CC(N)=O)C(=O)N[C@@H](C)C(N)=O)C(C)C)[C@@H](C)O	item: HA-52 tetramer	antigen-experienced tetramer+ CD4 T cells, healthy adults, HLA-DRB1*0101	dose not given		α4β7− CCR9+ cells	0%
CC[C@H](C)[C@@H]1NC(=O)[C@@H](NC(=O)CNC(=O)c2ccc(F)cc2)CSSC[C@@H]2NC(=O)[C@H](C)NC(=O)CNC(=O)[C@@H]3CCCN3C(=O)[C@@H]3CSSC[C@@H](C(=O)NCC(=O)O)NC(=O)[C@H](Cc4ccc(O)cc4)NC(=O)CNC(=O)[C@H](CC(N)=O)NC(=O)CNC(=O)[C@H](CCCNC(=N)N)NC(=O)[C@H](CSSC[C@H](NC(=O)[C@H](CCCNC(=N)N)NC(=O)[C@H](Cc4ccccc4)NC(=O)[C@H](CC(C)C)NC(=O)[C@H](CC(C)C)NC(=O)[C@H]([C@@H](C)O)NC(=O)CNC(=O)[C@H](CC(C)C)NC(=O)[C@H](CC(=O)O)NC(=O)[C@H]([C@@H](C)O)NC(=O)[C@H](CCCNC(=N)N)NC(=O)[C@H](CCSC)NC(=O)[C@H](CC(N)=O)NC(=O)[C@H](CC(C)C)NC1=O)C(=O)N[C@@H](CCCNC(=N)N)C(=O)N[C@@H](CCCNC(=N)N)C(=O)N[C@@H](CC(=O)O)C(=O)N[C@@H](CO)C(=O)N[C@@H](CC(=O)O)C(=O)N3)NC(=O)[C@H]([C@@H](C)CC)NC2=O [fluorine-18 labelled]	γ-counting	mouse, BxPC-3 xenograft (integrin αvβ6-positive), excised tumour	2 h post injection		tumour uptake	1.4 ± 0.3 %ID/g
CC(C)C[C@@H]1NC(=O)[C@H](C(C)C)NC(=O)[C@H](CO)NC(=O)CNC(=O)CNC(=O)[C@H](CCCNC(=N)N)NC(=O)[C@@H]2CCCN2C(=O)[C@@H](NC(=O)CC[C@H](NC(=O)c2ccc(N(C)Cc3cnc4nc(N)nc(N)c4n3)cc2)C(=O)O)C(C)(C)SSC[C@@H](C(=O)O)NC(=O)CNC(=O)[C@H]([C@@H](C)O)NC(=O)[C@H](C(C)C)NC1=O		rat adjuvant arthritis	iv, 5 mg/kg once daily, day 14		liver weight	4.86 ± 0.205 g
CC[C@H](C)[C@H](NC(=O)[C@H](Cc1ccc(O)cc1)NC(=O)[C@H](CCCCN)NC(=O)[C@H](CCCCN)NC(=O)[C@H](CCC(N)=O)NC(=O)[C@H](C)N)C(=O)N[C@@H](CO)C(=O)N[C@@H](Cc1ccc(O)cc1)C(=O)NCC(=O)N[C@@H](C)C(=O)N[C@@H](CCSC)C(=O)N[C@@H](CCCNC(=N)N)C(=O)N[C@@H](CCCNC(=N)N)C(=O)N[C@@H](CC(N)=O)C(=O)N[C@@H](CO)C(=O)N[C@H](C(=O)N1CCC[C@H]1C(=O)N[C@H]1CSSC[C@@H](C(=O)N[C@@H](CCC(N)=O)C(=O)N[C@@H](CCCNC(=N)N)C(=O)NCC(=O)N[C@@H](C)C(=O)N[C@@H](CCC(N)=O)C(=O)N[C@@H](C)C(=O)N[C@@H](CC(N)=O)C(=O)N2CCC[C@H]2C(=O)N[C@@H](Cc2ccc(O)cc2)C(=O)N[C@@H](CO)C(=O)N[C@@H](CCCNC(=N)N)C(=O)NCC(=O)N[C@H]2CSSC[C@@H](C(=O)N[C@@H](CCCNC(=N)N)C(=O)N[C@@H](CCCNC(=N)N)C(=O)O)NC(=O)[C@H](CCCNC(=N)N)NC(=O)[C@H]([C@@H](C)O)NC(=O)[C@H]([C@@H](C)CC)NC(=O)[C@H]([C@@H](C)O)NC(=O)[C@H](CO)NC2=O)NC(=O)[C@H](CC(N)=O)NC(=O)[C@H](Cc2ccc(O)cc2)NC(=O)[C@H](Cc2ccc(O)cc2)NC(=O)[C@H](CO)NC(=O)[C@H](C)NC(=O)CNC(=O)[C@H](CCCNC(=N)N)NC(=O)[C@H](CCCNC(=N)N)NC(=O)[C@H](CO)NC1=O)C(C)C	FITC/TRITC dextran ratio	Arabidopsis thaliana Col-0, root hairs	5 µM		extracellular pH increase	0.84 pH units
CC(C)[C@H](N)C(=O)N[C@@H](Cc1ccc(O)cc1)C(=O)N[C@@H](CCCCN)C(=O)N[C@H](C(=O)N[C@@H](CCCCN)C(=O)N[C@H](C(=O)N[C@@H](CCCCN)C(=O)N[C@H](C(=O)N[C@@H](CCCCN)C(=O)N[C@H](C(=O)N[C@@H](CCCCN)C(=O)N[C@H](C(=O)N[C@@H](CCCCN)C(=O)N[C@H](C(=O)N[C@@H](CCCCN)C(=O)N[C@H](C(=O)N[C@@H](CCCCN)C(=O)N[C@H](C(=O)O)[C@@H](C)O)C(C)C)[C@@H](C)O)C(C)C)[C@@H](C)O)C(C)C)[C@@H](C)O)C(C)C		Aβ(1-40) fibrils	1 h, room temperature	relative to: 1 M NaCl over PBS	binding ratio	0.21
COc1ccc([N+](=O)[O-])cc1NC(=O)CCC(=O)[O][Zn][O]C(=O)CCC(=O)Nc1cc([N+](=O)[O-])ccc1OC.c1ccncc1	antioxidant activity		62.5 µg/mL		DPPH scavenging	65 ± 1%

For quick reference, copied from above:
SMILES	assay	test system	setting	how to read	measurement	value
CC[C@H](C)[C@H](NC(=O)[C@@H](NC(=O)[C@H](CC(=O)O)NC(C)=O)[C@@H](C)O)C(=O)N[C@@H](CCCNC(=N)N)C(=O)N[C@@H](CC(C)C)C(=O)N[C@@H](CC(C)C)C(=O)N[C@@H](Cc1ccccc1)C(=O)N[C@@H](CCC(N)=O)C(=O)N[C@@H](CC(C)C)C(=O)N[C@@H](CCSC)C(=O)N[C@@H](CCCNC(=N)N)C(=O)N1CCC[C@H]1C(=O)N1CCC[C@H]1C(=O)N[C@@H](CC(N)=O)C(=O)N[C@@H](CCSC)C(=O)N[C@H](C(=O)N1CCC[C@H]1C(=O)N[C@@H](C)C(=O)N[C@H](C(=O)N[C@@H](CC(N)=O)C(=O)N[C@@H](C)C(N)=O)C(C)C)[C@@H](C)O	item: HA-52 tetramer	antigen-experienced tetramer+ CD4 T cells, healthy adults, HLA-DRB1*0101	dose not given		α4β7− CCR9+ cells	0%
